Results pooled from the literature.
Protocols differ between the studies behind these lines. ± marks the error that the study gave.
Chain of UniProt Q9NRH2 (whole entry, looked up): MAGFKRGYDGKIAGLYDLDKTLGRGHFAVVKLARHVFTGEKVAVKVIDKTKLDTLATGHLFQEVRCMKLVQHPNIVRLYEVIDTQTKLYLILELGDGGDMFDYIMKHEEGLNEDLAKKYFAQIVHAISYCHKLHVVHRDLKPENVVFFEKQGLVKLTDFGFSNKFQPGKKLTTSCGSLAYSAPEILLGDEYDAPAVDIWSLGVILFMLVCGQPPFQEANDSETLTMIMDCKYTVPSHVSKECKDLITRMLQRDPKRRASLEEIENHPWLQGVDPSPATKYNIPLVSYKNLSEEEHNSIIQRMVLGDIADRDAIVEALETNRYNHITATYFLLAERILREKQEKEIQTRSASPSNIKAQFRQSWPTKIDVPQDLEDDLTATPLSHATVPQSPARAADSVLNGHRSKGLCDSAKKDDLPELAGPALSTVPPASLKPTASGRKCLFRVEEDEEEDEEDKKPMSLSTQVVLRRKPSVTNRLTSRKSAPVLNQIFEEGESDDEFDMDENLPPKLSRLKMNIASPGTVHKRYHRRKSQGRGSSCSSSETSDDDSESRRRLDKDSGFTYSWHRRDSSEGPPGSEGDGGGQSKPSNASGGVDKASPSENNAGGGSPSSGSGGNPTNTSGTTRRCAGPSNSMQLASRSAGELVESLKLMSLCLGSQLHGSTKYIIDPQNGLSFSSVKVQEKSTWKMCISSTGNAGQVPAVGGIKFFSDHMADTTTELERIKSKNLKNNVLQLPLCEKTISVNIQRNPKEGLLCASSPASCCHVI

For `CC(C)C[C@@H](NC(=O)[C@@H](CCCNC(=N)N)NC(=O)[C@@H](Cc1c[nH]cn1)NC(=O)[C@@H](Cc1c[nH]c2ccccc12)NC(=O)[C@@H](Cc1c[nH]cn1)NC(=O)[C@@H](Cc1ccccc1)NC(=O)[C@H](NC(=O)[C@@H](Cc1ccc(O)cc1)NC(=O)CNC(=O)CNC(=O)CCOCCOCCOCCNC(=O)CN1CCN(CC(=O)O)CCN(CC(=O)O)CC1)[C@H](C)O)C(=O)N[C@H](CC(N)=O)C(=O)N1CCC[C@@H]1C(=O)O` [gallium-68 labelled], the tissue uptake was 40.9 ± 3.18 %ID/g (gamma counting; C57BL/6 mice, male, kidney; intravenous, 1.85 MBq, 30 min).
The tissue uptake of `C[C@H](O)[C@@H](NC(=O)[C@H]1CCCN1C(=O)[C@@H](CCCCN)NC(=O)[C@@H](CO)NC(=O)[C@@H](Cc1ccc(O)cc1)NC(=O)[C@@H](CC(N)=O)NC(=O)CCOCCOCCOCCNC(=O)CN1CCN(CC(=O)O)CCN(CC(=O)O)CCN(CC(=O)O)CC1)C(=O)N[C@H](CC(=O)O)C(=O)N[C@H](CCCNC(=N)N)C(=O)N[C@H](CCC(N)=O)C(=O)N[C@H](Cc1ccc(O)cc1)C(=O)N[C@H](Cc1c[nH]cn1)C(=O)N[C@H](Cc1ccccc1)C(N)=O` [copper-64 labelled] is reported as 0.97 ± 0.13 %ID/g (C57BL/6J mouse, blood; intravenous, 1.85 MBq, 0.6667 h).
`CN1Cc2cc(Cl)ccc2-n2c(nnc2C2CCN(c3cccc([18F])n3)CC2)C1` gave a tissue uptake of 3.63 ± 0.23 %ID/g (C57BL/6 mouse male, blood; intravenous, 3.7 MBq, 5 min).
With `COc1ccccc1-c1n[nH]c2nc(NC3CCN(C(=O)Cc4ccc(F)cc4F)CC3)ncc12` the relative abundance was 1.09 (bead binding, competition bead pull-down, refers to: LINJ.34.3890; Leishmania donovani extract; 10 µM; relative to: vehicle).
The tissue uptake of `CCOP(=O)(CNC(=O)CN1CCN(CC(=O)NCP(=O)(OCC)OCC)CCN(CC(=O)NCP(=O)(OCC)OCC)CCN(CC(=O)NCP(=O)(OCC)OCC)CC1)OCC.[177Lu+3]` is reported as 0.04 ± 0.008 % injected dose/g (Sprague-Dawley rat, blood; intravenous (tail vein), dose not given, 2 h).
`CS(C)(=O)=Nc1ccc(-c2ccc(-c3nc4cc(O[C@@H]5CO[C@H]6[C@@H]5OC[C@H]6O)[nH]c4cc3F)cc2)cc1` has an inhibition of -18% (SNF-related serine/threonine-protein kinase (SNRK, Homo sapiens, UniProt Q9NRH2); enzyme activity, inhibitor; 10 µM).
For `CSCC[C@H](NC(=O)CNC(=O)[C@H](CCCCN)NC(=O)[C@H](CC(C)C)NC(=O)[C@@H]1CCCN1C(=O)[C@H](CO)NC(=O)[C@H](Cc1c[nH]cn1)NC(=O)[C@H](Cc1c[nH]c2ccccc12)NC(=O)[C@H](CCCNC(=N)N)NC(=O)[C@H](CC(C)C)NC(=O)[C@H](CCCNC(=N)N)NC(=O)[C@H](Cc1c[nH]c2ccccc12)NC(=O)[C@H](CS)NC(=O)CCCCCNC(=O)CN1CCN(CC(=O)O)CCN(CC(=O)O)CCN(CC(=O)O)CC1)C(=O)O` [copper-64 labelled], the tissue uptake was 0.86 %ID/g (ex vivo biodistribution; male C57BL/6J mice, testis; intravenous, 1.85 MBq, 2 h, B16-F10 tumour-bearing).
For `Cc1ccccc1-c1ccc(-c2nc(-c3ccc(CN(C)CCCC(=O)O)c([18F])c3)no2)cc1C(F)(F)F`, the tissue uptake was 0.06 ± 0.03 %ID/g (male Sprague-Dawley rat, blood; 120 min).
For `O=C1NC2(CC2)COc2ncc(F)cc2[C@H]2COCCN2c2ccn3ncc1c3n2`, the serum triglycerides was 0.37 ± 0.11 mmol/L (Sprague-Dawley rat, female, serum; oral, 5 mg/kg/day, end of recovery, 4-week subacute toxicity).
`CC[C@H](C)[C@H](NC(=O)[C@H](CCCNC(=N)N)NC(=O)[C@H](CCCCN)NC(=O)[C@H](Cc1ccc(O)cc1)NC(=O)[C@H](CC(=O)O)NC(=O)[C@H](C)NC(=O)CNC(=O)CCOCCOCCOCCNC(=O)CN1CCN(CC(=O)O)CCN(CC(=O)O)CCN(CC(=O)O)CC1)C(=O)N[C@H](C(=O)N[C@H](C(=O)N[C@@H](CCCCN)C(=O)N[C@H](C(=O)N[C@@H](CC(N)=O)C(N)=O)C(C)C)C(C)C)[C@@H](C)O` [copper-64 labelled] gave a tissue uptake of 0.642 ± 0.094 %ID/g (ex vivo gamma counting; C57BL/6J male mice, B16-F10 tumour, pancreas; intravenous, 1.85 MBq, 40 min).
`CC[C@H](C)[C@H](NC(=O)[C@H](CCCCN)NC(=O)CNC(=O)[C@H](CC(C)C)NC(=O)[C@H](Cc1ccccc1)NC(=O)[C@H](CCCCN)NC(=O)[C@H](CO)NC(=O)[C@H](Cc1ccccc1)NC(=O)[C@H](Cc1c[nH]c2ccccc12)NC(=O)[C@H](CCC(N)=O)NC(=O)[C@@H](NC(=O)[C@H](Cc1ccccc1)NC(=O)CCCCCNC(=O)CN1CCN(CC(=O)O)CCN(CC(=O)O)CCN(CC(=O)O)CC1)C(C)C)C(=O)N[C@@H](CCC(=O)O)C(=O)N1CCC[C@H]1C(=O)N[C@@H](CC(=O)O)C(=O)N[C@H](C(=O)N[C@@H](CO)C(=O)N[C@@H](CCC(N)=O)C(=O)N[C@H](C(=O)N[C@@H](CCC(N)=O)C(=O)N[C@@H](CC(=O)O)C(=O)N1CCC[C@H]1C(=O)N[C@@H](CC(N)=O)C(=O)N[C@@H](CC(=O)O)C(=O)N[C@@H](CCC(N)=O)C(=O)N[C@@H](Cc1ccc(O)cc1)C(=O)N[C@@H](CCC(=O)O)C(=O)N1CCC[C@H]1C(=O)N[C@@H](Cc1ccccc1)C(=O)O)C(C)C)C(C)C` [copper-64 labelled] gave a tissue uptake of 5.81 ± 0.7 %ID/g (C57BL/6 male mouse, tumour-naive, lung; 1 h).
`Cc1nc2cccc(OCC(C)(C)C(=O)NC(C)C)c2c(N)c1C(=O)[O-].[Na+]` — result for “revertant colonies per plate”: 125 ± 11 (Salmonella typhimurium; TA100; 5.0 mg per plate, without S9, preincubation).
